Measured values gathered from unrelated publications.
Each numbered part is a random draw from the data of one study; scales do not carry over between parts. Values joined by “and” are separate records of one study, mostly repeats; a detail may differ. Positions count from the first letter of the parent shown.
Chain of UniProt Q9C0B0 (30-357, looked up): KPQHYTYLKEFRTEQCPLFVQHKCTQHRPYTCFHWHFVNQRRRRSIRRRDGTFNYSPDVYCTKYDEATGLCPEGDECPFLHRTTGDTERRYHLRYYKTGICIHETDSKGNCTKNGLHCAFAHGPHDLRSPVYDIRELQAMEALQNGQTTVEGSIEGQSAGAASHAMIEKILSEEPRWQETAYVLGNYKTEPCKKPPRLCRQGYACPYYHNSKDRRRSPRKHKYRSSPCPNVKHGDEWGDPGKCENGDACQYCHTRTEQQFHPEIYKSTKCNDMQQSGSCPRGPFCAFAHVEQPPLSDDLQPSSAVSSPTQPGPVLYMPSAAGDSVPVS

Sample 1 — method: DHFR PCA, dose-response; sample: yeast; setting: Hill fit, mean, not affinity; added: (+)-ABA, dose series; reading: lower = more sensitive
Target: ABI1, truncated, D143A, DHFR fusion (Arabidopsis thaliana, UniProt P49597)
Parent: PYL1, truncated, DHFR fusion (Arabidopsis thaliana, UniProt Q8VZS8); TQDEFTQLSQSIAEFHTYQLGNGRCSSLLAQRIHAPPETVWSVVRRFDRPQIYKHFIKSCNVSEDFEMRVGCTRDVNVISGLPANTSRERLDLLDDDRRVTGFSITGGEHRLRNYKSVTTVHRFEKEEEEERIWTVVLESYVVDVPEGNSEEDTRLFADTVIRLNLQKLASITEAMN
Variant | ABA EC50 [µM]
V43Q | 56.1
N177L | 3.95
T1G | 1.47
R88W | 20.8
A13K | 2.36
D144F | 345
T39L | 3.37
C25M | 16.5
G23S | 6.68
S59R | 7.38
M176D | 3.06
G107H | 42.2
T86M | 10.3
V145C | 4.45
P83M | 383

Sample 2 — target: XBP1, bZIP domain (human); method: DHFR protein complementation; sample: yeast; reference: wild-type JUN-FOS pair; reading: higher = stronger binding
Setting: single substitutions, most at no-binding floor
Parent: JUN, bZIP domain (human); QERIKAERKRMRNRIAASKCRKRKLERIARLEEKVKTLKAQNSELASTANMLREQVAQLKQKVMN; partner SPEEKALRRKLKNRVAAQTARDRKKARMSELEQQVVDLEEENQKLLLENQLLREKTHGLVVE
Variant | binding fitness
E54H | -1.32 natural log
Q55E | -1.02 natural log
A57E | -0.437 natural log
S43P | -1.45 natural log
S47F | -0.885 natural log
E54T | -1.11 natural log
V35N | -1.18 natural log
A29G | -1.21 natural log
A40G | -1.27 natural log
I28C | -1.42 natural log
M51E | -0.602 natural log
L38Y | -1.55 natural log
A40R | -0.649 natural log
K36H | -1.17 natural log
A49M | -1.29 natural log
K34R | -0.263 natural log
R30S | -0.49 natural log
T37M | -0.351 natural log
T48V | -0.93 natural log
S47T | -0.66 natural log

Sample 3 — method: RNA Bind-n-Seq; form: RNA; sample: in vitro; concentration: 200 nM; setting: whole 134-nt RNA, ends assumed; added: 150 mM LiCl; reference: input library; reading: higher = stronger binding; all molecules: 7-deaza-guanosine replaces G
Target: Fragile X messenger ribonucleoprotein 1, C-terminal low-complexity region (Fmr1, Mus musculus, UniProt P35922)
Constant ends, left off below: GGGAGUUCUACAGUCCGACGAUC … UGGAAUUCUCGGGUGUCAAGG
Oligonucleotide | log2 enrichment
CAAGUCCUGUGCUACACAUCGUAUGUACCGAAUCGGGUGGGUUUUUGGGUUUGGGAAAGUAUUAUGUUACGCCGUUCGGAUCUGCACUUC | -1.51
CAAGUCCUGUGCUACACAUCGUAUGUACCGAAUCGGGAAAAAGGGUUUGGGUGGGAAAGUAUUAUGUUACGCCGUUCGGAUCUGCACUUC | -1.57
UGUGCUACACAUCGUAUGUACCGAAUCGGGGCCCCCCCGGGGCCCCCCCGGCCCCCCCGGGGAAAGUAUUAUGUUACGCCGUUCGGAUCU | -1.54
UUCCGCUGUCUUUUCUGUCUACAGUUUGCGAUCCCCGCGUCCAGGAUGGAGCAGCUGAACGAACUGGAGCUGCUGAUGGAGAAGAGUUUU | -2.54
AAGUCCUGUGCUACACAUCGUAUGUACCGAAUCGGGAAAAGGGAAAAGGGAAAAGGGAAAGUAUUAUGUUACGCCGUUCGGAUCUGCACU | 0.146
UGGCCCUGGUGGCAUGCGGGGAGGAAGAGGUGGCCUCAUGGAUCGUGGUGGUCCCGGUGGAAUGAUCAGAGGUGGCCGUGGUGGAGACAG | -0.5
UUUCAGGGCGCCCUGCGUCCGGCAGAGGAGGCGAGCAUCCCGCUCAGGUGAUGAGGAACCCCUCGCGCACCCAGCGCAGAAGGCUGCUGC | -3.01
GUCCUGUGCUACACAUCGUAUGUACCGAAUCGGGGAAAAAAAGGGGUGGGGUUUGGGGAAAGUAUUAUGUUACGCCGUUCGGAUCUGCAC | -0.405
ACCAUGCAGGUGGGCAUCUUUGGGAAGUGGGGCAAGGGGGGGAUAGGGAGGGGGGUAACACUUUGGGAACAGGUGGUCCCAGGUCGAAAC | 1.41
GUCCUGUGCUACACAUCGUAUGUACCGAAUCGGUUUUUUGGUUUUUUGGUUUUUUGGGAAAGUAUUAUGUUACGCCGUUCGGAUCUGCAC | -1.55
UAACUUUAGAGGAGGAUCUGAUGGAUAUGGCAGUGGACGUGGAUUUAGGGAUGGCUAUAAUGGGUAUGGAGGAGGACCUGGAGGUGGCAA | -0.0757

Sample 4 — target: CCNB1, cyclin fold, Cln2 fusion (human); method: yeast growth competition, sequencing; sample: yeast; setting: weak parent motif; reference: not given; reading: higher = stronger binding
Parent: FOXM1 docking peptide (human); PHLARPIKVESPP
Variant | normalised enrichment score
R5A | -0.305
P6A | -0.287
E10A | -0.428
P12A | -1.15
I7A | -0.267
K8A | -0.156

Sample 5 — method: universal PBM; form: double-stranded DNA, one strand shown; sample: in vitro; concentration: 600 nM; reading: higher = stronger binding
Target: Sal-like protein 4, full length isoform A (SALL4, Homo sapiens, UniProt Q9UJQ4, residues 1-1053)
Chain of UniProt Q9UJQ4 (whole entry, looked up): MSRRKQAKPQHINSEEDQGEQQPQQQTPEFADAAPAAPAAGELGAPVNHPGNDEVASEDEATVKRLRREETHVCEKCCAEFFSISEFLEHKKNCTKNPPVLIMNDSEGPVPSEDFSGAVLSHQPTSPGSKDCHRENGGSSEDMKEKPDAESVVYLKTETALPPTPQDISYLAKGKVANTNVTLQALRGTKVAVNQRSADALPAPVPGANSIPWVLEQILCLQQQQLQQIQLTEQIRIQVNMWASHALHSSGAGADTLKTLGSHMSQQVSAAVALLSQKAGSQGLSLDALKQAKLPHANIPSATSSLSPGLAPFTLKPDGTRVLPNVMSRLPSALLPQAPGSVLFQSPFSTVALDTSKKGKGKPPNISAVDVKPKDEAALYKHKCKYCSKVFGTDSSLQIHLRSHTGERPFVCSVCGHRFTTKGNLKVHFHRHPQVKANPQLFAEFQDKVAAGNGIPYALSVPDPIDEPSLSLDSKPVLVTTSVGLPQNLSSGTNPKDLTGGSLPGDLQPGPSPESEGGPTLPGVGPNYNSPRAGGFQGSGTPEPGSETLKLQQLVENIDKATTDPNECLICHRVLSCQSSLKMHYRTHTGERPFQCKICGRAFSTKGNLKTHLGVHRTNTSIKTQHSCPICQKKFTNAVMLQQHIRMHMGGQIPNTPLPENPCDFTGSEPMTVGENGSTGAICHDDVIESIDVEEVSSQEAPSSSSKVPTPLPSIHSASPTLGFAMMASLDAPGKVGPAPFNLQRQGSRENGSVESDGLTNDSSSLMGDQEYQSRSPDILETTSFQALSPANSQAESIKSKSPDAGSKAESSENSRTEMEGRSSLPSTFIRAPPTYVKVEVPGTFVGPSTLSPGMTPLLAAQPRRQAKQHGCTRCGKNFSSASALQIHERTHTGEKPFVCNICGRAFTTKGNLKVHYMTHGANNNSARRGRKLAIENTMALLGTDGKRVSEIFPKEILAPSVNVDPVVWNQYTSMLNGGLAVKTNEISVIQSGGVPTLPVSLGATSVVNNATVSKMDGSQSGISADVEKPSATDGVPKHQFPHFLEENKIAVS
Setting: 8-mer, flanks averaged, mean of replicates
Oligonucleotide | E-score
CTGACGTC | -0.0679
GCGACGAC | -0.268
GAACGACC | -0.253
CCATCACC | -0.0918
AGTTCTCA | 0.0628
TTCCACAA | 0.2
ACTAGCAC | -0.117
CGCATGGA | -0.0786
ACCGTTGG | -0.252
ATACGTGC | 0.0365
CCTAATCG | -0.0114
GGCCAGCA | -0.256
GACTAGAC | -0.0309
GGGGATTA | -0.0917
CAAAGGTG | -0.0489
GCAGGCAC | -0.276
GGAAGAGA | 0.0401
AAATGTTC | 0.231
CGACCAGA | -0.16
ACACTGTC | 0.0473
AGGGATGA | -0.0537
ACTCTGCT | -0.0982
CATTTTCC | 0.224
GACCACAA | -0.0948
CTATGAAA | 0.227

Mixed results
Substance | tested on | assay | system | conditions | scale | endpoint | value
FBL (Homo sapiens, UniProt P22087) | NOP58 (Homo sapiens, UniProt Q9Y2X3) | cross-linking MS |  | hits only |  | interaction screen | cross-linked
PhoQ, residues 284 288 289 292 302 303 SCCLKL | PhoP, residues 12 14 15 18 19 LWHSL (Escherichia coli, UniProt P23836) | Sort-seq, refers to: YFP reporter | E. coli | PhoQ-PhoP variant library, added: 10 µM Mg2+ | reference: high Mg2+ state, higher = stronger signaling | fold induction | 9.14 and 6.43
H1-3 (Homo sapiens, UniProt P16402) | H3-5 (Homo sapiens, UniProt Q6NXT2) | cross-linking MS |  | hits only |  | interaction screen | cross-linked
GGGAGUUCUACAGUCCGACGAUCAGAGCUCACAAACUGAAAGGAAAACUAUUAAAGAGUUUCUAAUAUUAACUAUUAAAAAGCCCGGAAAGAUCCGGACAAUUUUACAAAUGAGCAAUUAAAAAGAAAAGAAAAGGAUCUGGGCAACAGAGGAUUGAGCAUCA | RING finger protein unkempt homolog, zinc fingers 1-6, SBP tag (UNK, Homo sapiens, UniProt Q9C0B0, residues 30-357) | RNA Bind-n-Seq | RNA, in vitro | 100 nM, RNA with constant flanks, ends assumed | reference: input RNA pool, higher = stronger binding | bound/input enrichment | 0.191 ratio
COPB1 (Homo sapiens, UniProt P53618) | COPA (Homo sapiens, UniProt P53621) | cross-linking MS |  | hits only |  | interaction screen | cross-linked

Repeated from above (sample 5):
Oligonucleotide | E-score
CGCATGGA | -0.0786
ACCGTTGG | -0.252
ATACGTGC | 0.0365
CCTAATCG | -0.0114
GGCCAGCA | -0.256
GACTAGAC | -0.0309
GGGGATTA | -0.0917
CAAAGGTG | -0.0489
GCAGGCAC | -0.276
